Assay results from different studies.
Numbered parts are unrelated; each lists some results of a single study. Several values in a cell are separate wells, animals, samples, runs or records.
UniProt P17948, sequence (whole entry, looked up): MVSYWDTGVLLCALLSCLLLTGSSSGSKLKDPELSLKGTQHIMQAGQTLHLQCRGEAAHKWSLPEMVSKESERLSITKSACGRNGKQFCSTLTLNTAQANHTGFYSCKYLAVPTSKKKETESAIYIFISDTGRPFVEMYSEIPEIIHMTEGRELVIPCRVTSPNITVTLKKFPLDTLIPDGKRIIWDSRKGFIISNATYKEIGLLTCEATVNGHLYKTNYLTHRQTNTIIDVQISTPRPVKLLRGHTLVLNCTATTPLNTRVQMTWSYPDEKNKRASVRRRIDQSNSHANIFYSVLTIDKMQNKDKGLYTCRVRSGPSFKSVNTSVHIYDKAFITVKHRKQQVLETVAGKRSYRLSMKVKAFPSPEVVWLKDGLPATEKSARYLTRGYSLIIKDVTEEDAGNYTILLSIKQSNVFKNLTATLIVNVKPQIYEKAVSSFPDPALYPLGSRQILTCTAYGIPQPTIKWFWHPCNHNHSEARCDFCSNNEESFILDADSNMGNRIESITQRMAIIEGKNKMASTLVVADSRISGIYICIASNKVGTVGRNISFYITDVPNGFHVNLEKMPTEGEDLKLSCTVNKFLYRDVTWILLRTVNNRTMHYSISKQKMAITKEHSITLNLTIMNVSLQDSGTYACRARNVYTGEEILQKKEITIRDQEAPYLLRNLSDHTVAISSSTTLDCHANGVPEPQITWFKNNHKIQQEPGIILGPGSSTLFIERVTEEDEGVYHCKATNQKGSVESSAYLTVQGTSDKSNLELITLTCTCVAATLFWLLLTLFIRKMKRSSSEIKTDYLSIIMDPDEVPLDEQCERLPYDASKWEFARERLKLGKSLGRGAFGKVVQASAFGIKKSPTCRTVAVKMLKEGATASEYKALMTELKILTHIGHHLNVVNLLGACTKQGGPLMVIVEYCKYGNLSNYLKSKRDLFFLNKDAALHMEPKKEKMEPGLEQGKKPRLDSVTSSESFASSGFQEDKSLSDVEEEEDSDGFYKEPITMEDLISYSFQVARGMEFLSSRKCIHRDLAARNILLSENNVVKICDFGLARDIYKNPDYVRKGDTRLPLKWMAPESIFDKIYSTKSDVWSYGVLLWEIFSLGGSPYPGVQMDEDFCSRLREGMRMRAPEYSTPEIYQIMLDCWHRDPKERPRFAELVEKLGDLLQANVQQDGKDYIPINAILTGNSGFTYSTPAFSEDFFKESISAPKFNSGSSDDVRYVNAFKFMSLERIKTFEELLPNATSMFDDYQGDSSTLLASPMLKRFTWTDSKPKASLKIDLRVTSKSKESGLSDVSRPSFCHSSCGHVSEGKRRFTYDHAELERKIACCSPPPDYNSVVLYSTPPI
UniProt P53667, sequence (whole entry, looked up): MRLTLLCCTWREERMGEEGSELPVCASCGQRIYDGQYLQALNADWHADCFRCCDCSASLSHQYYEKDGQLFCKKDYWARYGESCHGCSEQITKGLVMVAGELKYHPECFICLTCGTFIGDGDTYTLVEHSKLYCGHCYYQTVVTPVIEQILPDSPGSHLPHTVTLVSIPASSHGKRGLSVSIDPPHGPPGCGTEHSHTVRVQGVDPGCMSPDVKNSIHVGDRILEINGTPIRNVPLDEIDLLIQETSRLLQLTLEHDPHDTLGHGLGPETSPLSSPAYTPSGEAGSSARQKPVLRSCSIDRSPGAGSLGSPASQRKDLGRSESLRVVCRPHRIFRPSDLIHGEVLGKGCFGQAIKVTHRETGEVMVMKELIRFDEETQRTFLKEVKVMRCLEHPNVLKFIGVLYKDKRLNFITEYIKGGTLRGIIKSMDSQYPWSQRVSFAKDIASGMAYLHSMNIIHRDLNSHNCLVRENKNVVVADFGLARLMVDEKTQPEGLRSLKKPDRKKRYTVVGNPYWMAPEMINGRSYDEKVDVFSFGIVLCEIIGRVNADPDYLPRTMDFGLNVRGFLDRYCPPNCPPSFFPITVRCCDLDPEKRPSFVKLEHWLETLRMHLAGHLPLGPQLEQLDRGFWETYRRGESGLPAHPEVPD

Set 1
Target: Beta-1 adrenergic receptor (ADRB1, Homo sapiens, UniProt P08588)
UniProt P08588, sequence (whole entry, looked up): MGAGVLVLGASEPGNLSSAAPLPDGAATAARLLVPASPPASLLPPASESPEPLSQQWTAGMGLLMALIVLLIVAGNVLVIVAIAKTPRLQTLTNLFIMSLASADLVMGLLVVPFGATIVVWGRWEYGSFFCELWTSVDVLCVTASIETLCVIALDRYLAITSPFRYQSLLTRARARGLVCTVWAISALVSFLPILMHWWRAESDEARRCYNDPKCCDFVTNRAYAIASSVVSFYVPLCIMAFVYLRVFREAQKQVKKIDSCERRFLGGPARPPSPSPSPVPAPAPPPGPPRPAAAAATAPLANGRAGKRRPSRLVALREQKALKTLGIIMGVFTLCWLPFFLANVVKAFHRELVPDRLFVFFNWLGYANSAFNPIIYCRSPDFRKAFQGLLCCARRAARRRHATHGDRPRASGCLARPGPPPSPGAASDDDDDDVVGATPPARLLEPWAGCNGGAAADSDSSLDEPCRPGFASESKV
Action: agonist
Compound | EC50
COc1ccccc1-c1ncc2c(n1)OCCN(c1cccc(C(F)(F)F)c1)C2=O | ≥ 100 µM
CC(C)Oc1ccc(C(=O)N[C@H](CNC(=O)CN(C)C)Cc2ccc(-c3cn4cccc([C@H](C)O)c4n3)cc2)cc1Cl | ≥ 100 µM
c1cc2nnc(C3CCC3)n2nc1N1CCCNCC1 | ≥ 100 µM
Cn1ccnc1C(O)c1cc2n(n1)CCN(c1ncnc3[nH]cnc13)C2 (centres unmarked) | ≥ 100 µM
COc1ccccc1NC(=O)Nc1cccc(-c2ccc(N3CCOCC3)nn2)c1 | ≥ 100 µM
Brc1ccccc1-c1noc(-c2c[nH]nc2-c2ccccc2)n1 | ≥ 100 µM
O=C(c1cc(O)nc2ccccc12)N1CCC(Cn2nc(-c3ccccc3)ccc2=O)CC1 | ≥ 100 µM
Cn1nnnc1SCCCNCc1ccccc1OCc1ccccc1Cl | ≥ 100 µM
O=C(c1cc(N2CCN(c3ccccc3)CC2)nc2ccccc12)N1CCOCC1 | ≥ 100 µM
Cc1ccc2c(C(=O)N(C)C(C)C)cc(-c3cnc(C(C)C)nc3)nc2c1 | 11.2 µM
Cc1cc2c(s1)c1cnn(Cc3c(F)ccc(C)c3Cl)c(=O)c1n2C | ≥ 100 µM
Cc1cc(C(=O)N2CCc3c(nc(C)nc3N(C)C)C2)c2cccc(C)c2n1 | ≥ 100 µM
N#Cc1cc2c(nc1N1CCC(COc3cccc(C(F)(F)F)n3)CC1)CCOC2 | ≥ 100 µM
COc1ccc(-c2ccc3ccccc3n2)c(OC)c1OC | ≥ 100 µM

Set 2
Target: DNA polymerase theta, ATPase domain (POLQ, Homo sapiens, UniProt O75417)
UniProt O75417, sequence (whole entry, unmodified, looked up): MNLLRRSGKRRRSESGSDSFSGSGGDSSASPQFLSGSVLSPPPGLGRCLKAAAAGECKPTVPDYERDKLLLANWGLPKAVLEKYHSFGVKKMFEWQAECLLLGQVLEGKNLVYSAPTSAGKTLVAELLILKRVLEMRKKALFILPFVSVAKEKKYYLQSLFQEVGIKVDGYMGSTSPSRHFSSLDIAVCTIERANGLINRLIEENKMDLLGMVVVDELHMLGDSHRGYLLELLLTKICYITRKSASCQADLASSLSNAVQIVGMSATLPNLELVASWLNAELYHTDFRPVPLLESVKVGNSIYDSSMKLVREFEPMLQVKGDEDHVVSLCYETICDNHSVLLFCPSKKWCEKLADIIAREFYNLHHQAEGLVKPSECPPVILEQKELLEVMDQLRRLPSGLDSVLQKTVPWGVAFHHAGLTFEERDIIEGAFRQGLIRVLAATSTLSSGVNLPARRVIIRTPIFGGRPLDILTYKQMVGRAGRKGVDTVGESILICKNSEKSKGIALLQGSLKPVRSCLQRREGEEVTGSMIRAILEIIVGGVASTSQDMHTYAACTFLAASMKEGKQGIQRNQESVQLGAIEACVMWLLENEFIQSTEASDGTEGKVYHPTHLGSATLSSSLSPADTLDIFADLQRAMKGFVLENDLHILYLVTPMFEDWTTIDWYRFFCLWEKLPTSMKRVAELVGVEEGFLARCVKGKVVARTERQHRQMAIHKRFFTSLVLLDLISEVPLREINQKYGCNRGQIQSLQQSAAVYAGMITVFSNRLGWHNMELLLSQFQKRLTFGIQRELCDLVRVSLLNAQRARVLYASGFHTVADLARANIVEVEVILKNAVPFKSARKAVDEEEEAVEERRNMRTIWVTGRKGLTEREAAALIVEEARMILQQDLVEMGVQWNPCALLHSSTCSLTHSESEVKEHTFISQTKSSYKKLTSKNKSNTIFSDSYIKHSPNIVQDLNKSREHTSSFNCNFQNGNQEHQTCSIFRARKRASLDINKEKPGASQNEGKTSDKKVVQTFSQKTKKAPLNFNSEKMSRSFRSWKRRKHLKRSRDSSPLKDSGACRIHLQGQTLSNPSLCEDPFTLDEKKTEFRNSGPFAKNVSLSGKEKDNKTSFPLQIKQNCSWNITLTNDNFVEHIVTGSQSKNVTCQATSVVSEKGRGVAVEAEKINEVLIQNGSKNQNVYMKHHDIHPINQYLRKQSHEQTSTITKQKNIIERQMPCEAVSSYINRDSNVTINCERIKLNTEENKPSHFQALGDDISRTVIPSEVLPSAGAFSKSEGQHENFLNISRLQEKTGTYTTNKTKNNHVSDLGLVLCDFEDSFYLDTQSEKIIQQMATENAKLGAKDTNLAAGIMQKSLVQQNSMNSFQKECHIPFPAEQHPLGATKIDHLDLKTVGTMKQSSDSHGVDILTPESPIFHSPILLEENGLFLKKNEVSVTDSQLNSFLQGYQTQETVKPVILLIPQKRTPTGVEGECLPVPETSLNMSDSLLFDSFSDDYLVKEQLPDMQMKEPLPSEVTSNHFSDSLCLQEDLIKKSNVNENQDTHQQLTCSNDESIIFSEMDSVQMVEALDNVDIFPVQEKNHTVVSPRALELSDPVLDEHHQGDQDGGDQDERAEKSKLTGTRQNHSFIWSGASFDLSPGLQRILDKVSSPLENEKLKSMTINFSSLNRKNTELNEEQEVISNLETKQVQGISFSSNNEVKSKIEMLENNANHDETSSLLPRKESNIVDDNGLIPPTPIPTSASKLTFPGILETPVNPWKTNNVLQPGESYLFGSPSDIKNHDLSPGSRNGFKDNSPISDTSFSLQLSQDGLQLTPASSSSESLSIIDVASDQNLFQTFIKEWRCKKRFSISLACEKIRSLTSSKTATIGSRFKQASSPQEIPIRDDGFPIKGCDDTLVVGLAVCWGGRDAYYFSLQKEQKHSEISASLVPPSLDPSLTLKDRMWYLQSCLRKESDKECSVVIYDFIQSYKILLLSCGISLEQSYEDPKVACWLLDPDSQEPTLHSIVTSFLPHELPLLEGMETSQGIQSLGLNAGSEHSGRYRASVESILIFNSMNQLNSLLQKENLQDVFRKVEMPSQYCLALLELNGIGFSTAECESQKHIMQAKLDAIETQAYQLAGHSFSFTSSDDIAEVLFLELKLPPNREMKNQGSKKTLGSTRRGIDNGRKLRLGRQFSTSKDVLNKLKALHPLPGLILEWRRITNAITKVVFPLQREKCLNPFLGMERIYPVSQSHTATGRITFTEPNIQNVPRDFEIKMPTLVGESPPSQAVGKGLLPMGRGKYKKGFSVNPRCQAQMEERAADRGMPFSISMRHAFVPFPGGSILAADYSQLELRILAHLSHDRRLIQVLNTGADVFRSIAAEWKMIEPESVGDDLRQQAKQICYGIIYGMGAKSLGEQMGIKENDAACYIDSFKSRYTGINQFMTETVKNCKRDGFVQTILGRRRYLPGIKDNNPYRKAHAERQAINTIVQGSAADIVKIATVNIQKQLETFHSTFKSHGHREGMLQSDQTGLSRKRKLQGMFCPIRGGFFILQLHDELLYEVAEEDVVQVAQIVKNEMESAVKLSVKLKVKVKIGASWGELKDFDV
Observed: enzyme activity
Action: inhibitor
Concentration: 77 µM
Relative to: untreated
SMILES | remaining activity
O=C(CCCCCN1C(=O)c2cccc3cccc(c23)C1=O)NO | 102%
Nc1ccc(S(=O)(=O)Nc2cnc3ccccc3n2)cc1 | 104%
CC1COC2(CCN(c3nc(=O)c4cc(C(F)(F)F)cc([N+](=O)[O-])c4s3)CC2)O1 (racemic) | 92.3%
COCCOc1cc2ncnc(Cl)c2cc1OCCOC | 105%
C=C[C@]1(C)C[C@@H](OC(=O)CS[C@@H]2C[C@H]3CC[C@@H](C2)N3C)[C@]2(C)[C@H](C)CC[C@]3(CCC(=O)[C@H]32)[C@@H](C)[C@@H]1O | 98.5%
COc1ccc(C2=N[C@@H](c3ccc(Cl)cc3)[C@@H](c3ccc(Cl)cc3)N2C(=O)N2CCNC(=O)C2)c(OC(C)C)c1 | 96.7% and 102%
CCOC(=O)[C@@H](N)Cc1ccc(-c2cc(O[C@H](c3ccc(Cl)cc3-n3ccc(C)n3)C(F)(F)F)nc(N)n2)cc1 | 101%

Set 3
Compound: O=C(Nc1cccnn1)N1CC(C/C=C/c2cncc(Oc3ccc(C(F)(F)F)cn3)n2)C1
Concentration: 1 µM
target | observed | technique | remaining binding
Serine/threonine-protein kinase Nek6 (NEK6, Homo sapiens, UniProt Q9HC98) | cell-free assay | competition with immobilised ligand | 100%
Serine/threonine-protein kinase RIO3 (RIOK3, Homo sapiens, UniProt O14730) | cell-free assay | competition with immobilised ligand | 100%
Death-associated protein kinase 3 (DAPK3, Homo sapiens, UniProt O43293) | cell-free assay | competition with immobilised ligand | 100%
Ephrin type-B receptor 2 (EPHB2, Homo sapiens, UniProt P29323) | cell-free assay | competition with immobilised ligand | 100%
Cyclin-dependent kinase 4, with cyclin D3 (CDK4, Homo sapiens, UniProt P11802) | cell-free assay | competition with immobilised ligand | 94%
MAP kinase-activated protein kinase 5 (MAPKAPK5, Homo sapiens, UniProt Q8IW41) | cell-free assay | competition with immobilised ligand | 76%
Myosin-IIIa (MYO3A, Homo sapiens, UniProt Q8NEV4) | binding | competition with immobilised ligand | 100%
Inhibitor of nuclear factor kappa-B kinase subunit epsilon (IKBKE, Homo sapiens, UniProt Q14164) | cell-free assay | competition with immobilised ligand | 77%
Myosin-IIIb (MYO3B, Homo sapiens, UniProt Q8WXR4) | binding | competition with immobilised ligand | 100%
Receptor-type tyrosine-protein kinase FLT3 (FLT3, Homo sapiens, UniProt P36888, D835Y) | cell-free assay | competition with immobilised ligand | 100%
Cyclin-dependent kinase 11A (CDK11A, Homo sapiens, UniProt Q9UQ88) | binding | competition with immobilised ligand | 100%
Serine/threonine-protein kinase TNNI3K (TNNI3K, Homo sapiens, UniProt Q59H18) | cell-free assay | competition with immobilised ligand | 100%
Serine/threonine-protein kinase SIK1 (SIK1, Homo sapiens, UniProt P57059) | – | competition binding | 100%
Receptor-type tyrosine-protein kinase FLT3 (FLT3, Homo sapiens, UniProt P36888, K663Q) | cell-free assay | competition with immobilised ligand | 100%
Vascular endothelial growth factor receptor 1 (FLT1, Homo sapiens, UniProt P17948) | cell-free assay | competition with immobilised ligand | 100%
Serine/threonine-protein kinase N2 (PKN2, Homo sapiens, UniProt Q16513) | cell-free assay | competition with immobilised ligand | 100%
Cyclin-dependent kinase 15 (CDK15, Homo sapiens, UniProt Q96Q40) | cell-free assay | competition with immobilised ligand | 100%
Activin receptor type-2A (ACVR2A, Homo sapiens, UniProt P27037) | cell-free assay | competition with immobilised ligand | 100%
Receptor tyrosine-protein kinase erbB-4 (ERBB4, Homo sapiens, UniProt Q15303) | cell-free assay | competition with immobilised ligand | 100%
Calcium/calmodulin-dependent protein kinase type IV (CAMK4, Homo sapiens, UniProt Q16566) | cell-free assay | competition with immobilised ligand | 100%
STE20/SPS1-related proline-alanine-rich protein kinase (STK39, Homo sapiens, UniProt Q9UEW8) | cell-free assay | competition with immobilised ligand | 77%
Receptor-type tyrosine-protein kinase FLT3 (FLT3, Homo sapiens, UniProt P36888, D835V) | cell-free assay | competition with immobilised ligand | 77%
Calcium/calmodulin-dependent protein kinase type II subunit beta (CAMK2B, Homo sapiens, UniProt Q13554) | cell-free assay | competition with immobilised ligand | 100%
Macrophage colony-stimulating factor 1 receptor, autoinhibited (CSF1R, Homo sapiens, UniProt P07333) | cell-free assay | competition with immobilised ligand | 87%
Serine/threonine-protein kinase 32A (STK32A, Homo sapiens, UniProt Q8WU08) | cell-free assay | competition with immobilised ligand | 100%

Set 4
Structure (SMILES): c1ccc2c(-c3ccncc3)c[nH]c2c1
Observed: enzyme activity
Action: inhibitor
Concentration: 0.5 µM
Relative to: control
target | remaining activity [%]
RAC-alpha serine/threonine-protein kinase (AKT1, Homo sapiens, UniProt P31749) | 100
Tyrosine-protein kinase Fgr (FGR, Homo sapiens, UniProt P09769) | 94.5
Vascular endothelial growth factor receptor 3 (FLT4, Homo sapiens, UniProt P35916) | 119
MAP/microtubule affinity-regulating kinase 3 (MARK3, Homo sapiens, UniProt P27448) | 98
Cyclin-dependent kinase 3, with cyclin E (CDK3, Homo sapiens, UniProt Q00526) | 98.2
Tyrosine-protein kinase Fer (FER, Homo sapiens, UniProt P16591) | 91.6
PAS domain-containing serine/threonine-protein kinase (PASK, Homo sapiens, UniProt Q96RG2) | 101
Insulin receptor (INSR, Homo sapiens, UniProt P06213) | 90.5
Serine/threonine-protein kinase TAO3 (TAOK3, Homo sapiens, UniProt Q9H2K8) | 103
Serine/threonine-protein kinase 25 (STK25, Homo sapiens, UniProt O00506) | 117
Serine/threonine-protein kinase MRCK alpha (CDC42BPA, Homo sapiens, UniProt Q5VT25) | 99.9
LIM domain kinase 1 (LIMK1, Homo sapiens, UniProt P53667) | 92
cAMP-dependent protein kinase catalytic subunit PRKX (PRKX, Homo sapiens, UniProt P51817) | 54.3
Proto-oncogene tyrosine-protein kinase Src (SRC, Homo sapiens, UniProt P12931) | 100
Serine/threonine-protein kinase N1 (PKN1, Homo sapiens, UniProt Q16512) | 66.4
Serine/threonine-protein kinase Nek11 (NEK11, Homo sapiens, UniProt Q8NG66) | 76.9
Tyrosine-protein kinase ITK/TSK (ITK, Homo sapiens, UniProt Q08881) | 94.8
Serine/threonine-protein kinase NLK (NLK, Homo sapiens, UniProt Q9UBE8) | 95.1
ALK tyrosine kinase receptor (ALK, Homo sapiens, UniProt Q9UM73) | 106
Tyrosine-protein kinase Fyn (FYN, Homo sapiens, UniProt P06241) | 98.7
Homeodomain-interacting protein kinase 1 (HIPK1, Homo sapiens, UniProt Q86Z02) | 97.4
Megakaryocyte-associated tyrosine-protein kinase (MATK, Homo sapiens, UniProt P42679) | 93.9

For quick reference, copied from above (set 1):
Compound | EC50
Cn1nnnc1SCCCNCc1ccccc1OCc1ccccc1Cl | ≥ 100 µM
O=C(c1cc(N2CCN(c3ccccc3)CC2)nc2ccccc12)N1CCOCC1 | ≥ 100 µM
Cc1ccc2c(C(=O)N(C)C(C)C)cc(-c3cnc(C(C)C)nc3)nc2c1 | 11.2 µM
Cc1cc2c(s1)c1cnn(Cc3c(F)ccc(C)c3Cl)c(=O)c1n2C | ≥ 100 µM
Cc1cc(C(=O)N2CCc3c(nc(C)nc3N(C)C)C2)c2cccc(C)c2n1 | ≥ 100 µM
